# Measurements from different studies.
# Numbered parts are unrelated; each lists some results of a single study.

# Set 1 — technique: protein-binding microarray; molecule type: double-stranded DNA, one strand shown; matrix: in vitro; tested at: 2540 nM top; notes: 60-bp whole probe; with: salmon DNA 0.4 mg/ml; relative to: random background probes; reading: higher = stronger binding; shared flanks, not repeated: GCCTAGCAC … GTCTTGATTCGCTTGACGCTGCTG
# Target: Interferon regulatory factor 3, full length, phosphomimetic (IRF3, Homo sapiens, UniProt Q14653, residues 1-427, S386D/S396D/S398D/S402D/T404D/S405D)
# UniProt Q14653, sequence (whole entry, unmodified, looked up): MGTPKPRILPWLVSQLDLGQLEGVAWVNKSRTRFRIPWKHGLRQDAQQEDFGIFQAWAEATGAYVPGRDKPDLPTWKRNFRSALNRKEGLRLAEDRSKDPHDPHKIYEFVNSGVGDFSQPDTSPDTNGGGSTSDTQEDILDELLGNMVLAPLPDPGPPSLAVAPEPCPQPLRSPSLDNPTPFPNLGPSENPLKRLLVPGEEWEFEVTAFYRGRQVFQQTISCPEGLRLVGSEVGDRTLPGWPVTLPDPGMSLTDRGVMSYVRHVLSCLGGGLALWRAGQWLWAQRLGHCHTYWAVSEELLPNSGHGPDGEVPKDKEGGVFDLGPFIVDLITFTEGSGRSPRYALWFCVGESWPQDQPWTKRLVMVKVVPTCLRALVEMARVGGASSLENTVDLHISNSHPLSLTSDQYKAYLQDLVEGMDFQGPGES
Oligonucleotide,fitted relative affinity [z-score]
TTAGGTTTCAGTTTCGATTAGTGCTAG,7.8
TCATCATTGCCTATTTTTCAGTGCTAG,0.539
TCATTTTCCTTATTGCTTACTGTGCTA,6.71
CAGGGAATTCACCTGCTGACGTGCTAG,-0.389
TACGATTTCAGTATCGAGACGTGCTAG,1.98
GACGGTATCCTTATACTGACGTGCTAG,4.41
TGCTTTCCAATTCTCTTTTCGTGCTAG,6.56
GACGGCATCGACTTTCGGGACGTGCTA,0.0428
TTAGATTTCAAACTGGATTAGTGCTAG,0.744
GAAGGTTTCGGTCTCGGGACGTGCTAG,8.13
TTAGATTTCGGACTGGATTAGTGCTAG,1.53
GACGGTATCGGTTTCGGGATGTGCTAG,6.65
TGTGCCATATTTATCTGCAAGTGCTAG,1.15
TCACTTCTGCCTGTCCAACTGTGCTAG,0.969
TCAGGTCTCCTTCTCCTTTAGTGCTAG,4.44
TTAGGTCTCCTACTGCTTTCGTGCTAG,0.662
TTAGGGATCGGTCTCGGTTAGTGCTAG,1.63
TGCTTTCTCCCAAGTCTTGTTGTGCTA,0.734
TTAGGACTGGGGACTGGGATAGTGCTA,-0.971
GTCGGTATCGGTTTCGGGACGTGCTAG,8.2
TGAGGACTGCTTTTCCTTTAGTGCTAG,0.482

# Set 2 — technique: RNA Bind-n-Seq; molecule type: RNA; matrix: in vitro; tested at: not given; relative to: input RNA pool; reading: higher = stronger binding
# Target: RING finger protein unkempt homolog, zinc fingers 1-6, GST-SBP tag (UNK, Homo sapiens, UniProt Q9C0B0, residues 30-357)
# UniProt Q9C0B0, sequence (30-357, looked up): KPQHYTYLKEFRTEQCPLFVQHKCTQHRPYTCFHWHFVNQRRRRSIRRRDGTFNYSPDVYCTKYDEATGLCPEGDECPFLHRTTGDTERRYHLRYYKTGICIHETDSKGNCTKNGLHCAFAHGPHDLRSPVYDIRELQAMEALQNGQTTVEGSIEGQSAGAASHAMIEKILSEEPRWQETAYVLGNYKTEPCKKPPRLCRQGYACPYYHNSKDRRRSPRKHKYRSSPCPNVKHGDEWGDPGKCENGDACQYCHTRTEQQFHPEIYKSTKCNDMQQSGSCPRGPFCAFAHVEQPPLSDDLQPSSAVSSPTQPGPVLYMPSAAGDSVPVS
# Notes: RNA with constant flanks, human-mouse chimeric sites, ends assumed
Oligonucleotide,bound/input enrichment [ratio]
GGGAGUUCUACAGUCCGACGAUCACACAAUAUGAGACCAACAGCAUGGACUUCAAAGUUGGGGCAGAUGGGACAGUCUUCGCCACCCGGGAGUUGAAGAUCCCCUCCGAGCAGGUGGCGUUUACCGUCACUGCAUGGGACAGCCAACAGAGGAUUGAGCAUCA,0.135
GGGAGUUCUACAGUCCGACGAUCGUUGCCAGCUUCCGGUUCCGUUGGGCUCGGUUCUCUCAGUGCUACGUUGUCUCUACGUUUUAGGUGUGCCAUCCAACAAACAUGGAUCAGGUAAUGCAGUUUGUGGAGCCCAGCCGGCAGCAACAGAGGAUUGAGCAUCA,0.113
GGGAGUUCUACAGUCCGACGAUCAUGCAGUAUGAGACCAACAGCAUGGACUUCAAAGUUGGGGCAGAUGGGACAGUCUUCGCCACCCGGGAGCUGCAGGUCCCCUCCGAGCAGGUGGCGUUCACGGUGACUGCGCGGGAAAGCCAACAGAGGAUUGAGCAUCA,0.193
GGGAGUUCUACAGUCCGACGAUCUACUACUAUGAUGGUGAUAUUGGCAAUUAUUAUUAUGGCCAGGGUCAUCCCAUGAAGCCUCAUAGAAUCCGGAUGACUCAUAACUUGCUGUUAAAUUAUGGCUUAUACCGAAAAAUGGAACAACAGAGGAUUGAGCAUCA,0.1
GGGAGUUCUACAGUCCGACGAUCUUUGUAUUUAUGCUAAGCACACGUGCUGGUGGUCUGGGCAUCAAUCUUGCAACUGCUGAUGUAGUCAUUUUAUAUGAUUCUGAUUGGAAUCCGCAAGUUGAUCUUCAGGCUAUGGACCGUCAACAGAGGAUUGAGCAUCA,0.175
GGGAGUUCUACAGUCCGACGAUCUCGGAUGCUGUGCUGGGUCACUUUUCAUAUCCAGAUCCUUCACAGUGGACAGAUGAAGAACUGGGAAUCCCUCCUGAUGACGAGGACUGAAGGUGUAAACUCUCUGGCACUCUGUACGCACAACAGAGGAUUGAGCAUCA,0.351
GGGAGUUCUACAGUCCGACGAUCAUAGAUGAAAUUGAUGUGGACCAGGAAGGAAUUGCUGAAAUGAUCCUGGAUGAAAAUGCUAUUGCUCAAGUUCCACGCCCUGGCACAUCUUUGAAGCUCCCUGGCACUAACCAAACAGGACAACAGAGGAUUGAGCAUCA,0.338
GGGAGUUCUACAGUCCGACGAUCGGGACUGAUUCAUCCCAAGGACAGGCCACCCCAUUUGAUGCCUGGACUGACGACAGUAUGGAAGGGCCUAGUCAAAAUGUUGAAGCUGAGUCAAUUCAGGAUGCCAUGCAUAUGGCAGAGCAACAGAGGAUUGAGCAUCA,0.166
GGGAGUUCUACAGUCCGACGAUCGCUCCUCCCCGCUCUGCAGCCUGGGGACACUGGGCUGCAUUUUUUUUCCAGCUUUCUUUUAAUAGUGUCAGUGUAACUGUAUCCCGUGACAUUUCAUUUUUUUUAAAUAGUGUAUUUUUUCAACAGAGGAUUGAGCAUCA,18.9
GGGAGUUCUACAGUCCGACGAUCGAUGAUAAUCACACAAACAAGUCACUGUUAUGUGACCAGCCUUGGGAUUCUUCUCCUGAUUAAUAUUCUCCCUGGAACCACUGGUCAAGGGGAAUCAAGACGACAAGAACCCGGGGACUUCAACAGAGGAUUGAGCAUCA,0.129
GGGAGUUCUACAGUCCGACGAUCUCUUUAAAAAAAAAAUUACCUUUUCUGACAGUGCUUUCCCUCCCAUAGAUCCACGUUCAAGCUCAAAGGCCAAAACUUCCGCAAACAGCUCAAACAUCUGAUGAAGAAAGAUUUCUGAGACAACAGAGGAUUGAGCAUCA,1.23

# Set 3 — technique: aptamer microarray, sandwich; molecule type: DNA with 2'F-ANA; matrix: in vitro; tested at: 200 nM; with: Cy3 exosite-II aptamer, 400 nM; reading: higher = stronger binding; oligonucleotide: GGTTGGTGTGGTTGG
# Target: Prothrombin, mature alpha-thrombin (F2, Homo sapiens, UniProt P00734)
# Notes: whole 15-mer aptamer, many near background
Modification,mean fluorescence intensity [a.u.]
2'F-ANA at 2 6 8 9 12 14 15,155
2'F-ANA at 2 3 4 5 7 8 11 13 14 15,73.2
2'F-ANA at 2 3 4 7 8 9 10 15,260
2'F-ANA at 2 8 9 10 13 14 15,88.7
2'F-ANA at 1 2 8 9 13 15,139
2'F-ANA at 1 4 5 6 7 8 9 10 11 12 13 14,54
2'F-ANA at 1 2 4 6 7 8 9 12 13 14 15,59.3
2'F-ANA at 2 3 4 5 6 8 10 11 12 13 14,49.9
2'F-ANA at 1 4 6 7 9 11 12 13 14 15,52.8
2'F-ANA at 3 4 5 6 7 8 10 11 12 15,65.4
2'F-ANA at 2 4 6 8 11 12 13 15,342
2'F-ANA at 2 3 5 7 10 12 13 14 15,56.2
2'F-ANA at 1 3 4 6 7 9 11 12 13 14,79.4
2'F-ANA at 3 8 11,1130
2'F-ANA at 1 2 3 6 8 9 12 13,326
2'F-ANA at 1 2 3 4 5 6 8 11 12 13,86.5
2'F-ANA at 1 3 5 9 13 14 15,49.1
2'F-ANA at 1 4 5 6 7 8 9 10 13 14,50.3
2'F-ANA at 2 6 12 13 14 15,175

# Set 4 — technique: RNA Bind-n-Seq; molecule type: RNA; matrix: in vitro; tested at: 365 nM; relative to: no-protein control; reading: higher = stronger binding
# Target: RNA binding protein fox-1 homolog 2, RRM domain, GST-SBP tag (RBFOX2, Homo sapiens, UniProt O43251-10, residues 100-194)
# Notes: natural RNA segment, single round, ends assumed
# Residues (chain): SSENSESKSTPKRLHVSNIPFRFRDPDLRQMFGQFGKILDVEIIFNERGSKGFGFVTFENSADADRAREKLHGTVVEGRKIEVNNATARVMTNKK
Oligonucleotide,RBNS enrichment (R)
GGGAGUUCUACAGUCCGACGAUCAGCCUACAGCAGAUUAUCAGCUCGGUGACUUUUCUUUCUGCCACCAUUUAGGUGAUGGUGUUUGAUUCAGAGAUGGCUGAAUUUCUAUUCUUAGCUUAUUGUGACUGUUUUGGAAUUCUCGGGUGCCAA,0.237
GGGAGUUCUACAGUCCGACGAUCGGCAGCACUAUCUAGAUAGGUAAGUGGGGGCGGGGAAGGGUGCAUAGCUGUUUUAGCCGAGGGACUCGAUACCGACGUCCCCAGAUAUAGCUAGGCUAAGUCAAGAUCAAUGGAAUUCUCGGGUGCCAA,0.564
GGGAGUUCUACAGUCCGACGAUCCUUCCAGGCCUCUUCCCCUUUCCUCCAUCUCUGGCAACAGUUCUUGGGGUUUGGCAAUUGUUUGGAUUUUUUUUCUUUCUGCAGUUGUGUGUAUGUGUGUUUGUGUGAAGUGGAAUUCUCGGGUGCCAA,3.05
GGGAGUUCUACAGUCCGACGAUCUUUUCUUUUUCUCUCCCUUCCUUCUUGGUUUCCCAUAGUAUAAUAAGCAUGCAUACUUUAACUUCUAUAGUUUUCUCCUUUAGAGGGUCGUCUUCAGUUUUAGAGGUUUAUGGAAUUCUCGGGUGCCAA,48.9
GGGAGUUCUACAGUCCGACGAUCGGGUUUAGAAAUUCAUUUAUAACUGGUUCUCUGAUGUGGGAAAUCCUGAUUCUGUCCCGGGUUCUUUGCUACUUCCUUGAAAAUACUCUAGCUUCAUGCUGGGUCAAGGUUGGAAUUCUCGGGUGCCAA,0.301
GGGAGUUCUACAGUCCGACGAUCCUCCUGGACCCACUUCCAGUCCCGUUUUGCAUUCCCCUUUGGAUUUUGCUUUGGCUAUUUUUUGUUGUAACCUCUUGAUGUAACAGCACUUUAAAAGGGCGACAACUGACUGGAAUUCUCGGGUGCCAA,0.573
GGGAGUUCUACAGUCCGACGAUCUCUGGGGGACUCCUUCCUUGAACCCUAAUAAGACCCCACUGGAGUCUCUCUCUCUCCAUCCCUCUCCUCUGCCCUCUGCUCUAAUUGCUGCCAGGAUUGUCACUCCAAACUGGAAUUCUCGGGUGCCAA,0.948
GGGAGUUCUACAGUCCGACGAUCUUCCACCAAAGCAAAUCUGGCUCCUUCUUUAGAGAGAAGCCUACGUGGCGACUGCUCUUAUUUAAGGAAACCACCUUGGGUCUGAGAGGUGGAGAGGCCGUGGGAUUAAGUGGAAUUCUCGGGUGCCAA,0.247
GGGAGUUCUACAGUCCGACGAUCAUUUAUUUCUAGAACUCACUAUCAGUGAGCAGUGCCAGAGUGUUUUCUCUUUGACCUAGAGGUUUCACAUCAUAGCAAGGAGGGAAAAGUCUCCCCAUCUCCUUACAACUUGGAAUUCUCGGGUGCCAA,0.226
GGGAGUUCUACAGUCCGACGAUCUCCAAGACACAGGGAAGGAAGGCAGAGGCUCCUCAGGGCCUUAUGGUAGGCCUAGCAGGUAGAGCUCAGGCCAGGGGUCUUUCCUCUGAGUCGGGAACAUGUCCAUUCUAUGGAAUUCUCGGGUGCCAA,0.343
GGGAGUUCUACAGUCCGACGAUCAUAUUUUCUUCCCCAUCCGCUGGUUUACAUUUCUGUAACAGUUGCAUAUGGCUAGCACCAUGGACUAUAUAUACCCACUGACCGAUUUUCAUUAAAUUUUGUCUUAUAAAUGGAAUUCUCGGGUGCCAA,0.712
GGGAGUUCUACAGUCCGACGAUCAACAUAUUUAUAAGGACAUAUUCCUGUGGGUUCUUGGGUGUGUUUGCCACAUCAAGAUUUUAGGGAAGGGGGGUAUAUGUGUAGUAGGGAUGCCGUUUGAAAACAGGCACUGGAAUUCUCGGGUGCCAA,0.875

# Excerpt of the above (set 3):
Modification,mean fluorescence intensity [a.u.]
2'F-ANA at 3 8 11,1130
2'F-ANA at 3 4 5 6 7 8 10 11 12 15,65.4
2'F-ANA at 1 3 4 6 7 9 11 12 13 14,79.4
2'F-ANA at 1 3 5 9 13 14 15,49.1
2'F-ANA at 1 4 5 6 7 8 9 10 13 14,50.3
2'F-ANA at 1 4 6 7 9 11 12 13 14 15,52.8
